Published values collected from several papers.
Parts stem from different laboratories: compare values within a part only.
UniProt P28223, sequence (whole entry, looked up): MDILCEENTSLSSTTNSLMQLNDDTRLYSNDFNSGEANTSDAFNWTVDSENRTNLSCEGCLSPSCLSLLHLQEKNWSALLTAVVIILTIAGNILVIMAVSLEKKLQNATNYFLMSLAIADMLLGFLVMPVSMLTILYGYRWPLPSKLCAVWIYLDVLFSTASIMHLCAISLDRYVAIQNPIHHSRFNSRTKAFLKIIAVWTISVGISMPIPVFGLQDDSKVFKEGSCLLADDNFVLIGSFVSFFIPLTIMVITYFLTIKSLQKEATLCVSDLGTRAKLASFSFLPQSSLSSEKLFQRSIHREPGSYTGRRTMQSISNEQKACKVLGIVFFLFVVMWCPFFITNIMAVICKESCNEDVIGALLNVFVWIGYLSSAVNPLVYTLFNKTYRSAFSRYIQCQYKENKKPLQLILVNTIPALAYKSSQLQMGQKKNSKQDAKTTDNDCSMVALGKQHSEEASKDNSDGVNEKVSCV
UniProt P61075, sequence (whole entry, looked up): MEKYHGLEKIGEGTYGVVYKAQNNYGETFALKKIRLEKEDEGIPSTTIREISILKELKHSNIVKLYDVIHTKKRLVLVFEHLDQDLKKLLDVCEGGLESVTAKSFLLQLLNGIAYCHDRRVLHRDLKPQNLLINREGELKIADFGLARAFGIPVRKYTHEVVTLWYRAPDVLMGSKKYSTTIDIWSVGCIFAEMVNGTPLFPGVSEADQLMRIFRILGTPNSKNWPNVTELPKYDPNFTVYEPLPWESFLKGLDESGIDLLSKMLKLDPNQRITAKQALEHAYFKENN
UniProt P9WI81, sequence (whole entry, looked up): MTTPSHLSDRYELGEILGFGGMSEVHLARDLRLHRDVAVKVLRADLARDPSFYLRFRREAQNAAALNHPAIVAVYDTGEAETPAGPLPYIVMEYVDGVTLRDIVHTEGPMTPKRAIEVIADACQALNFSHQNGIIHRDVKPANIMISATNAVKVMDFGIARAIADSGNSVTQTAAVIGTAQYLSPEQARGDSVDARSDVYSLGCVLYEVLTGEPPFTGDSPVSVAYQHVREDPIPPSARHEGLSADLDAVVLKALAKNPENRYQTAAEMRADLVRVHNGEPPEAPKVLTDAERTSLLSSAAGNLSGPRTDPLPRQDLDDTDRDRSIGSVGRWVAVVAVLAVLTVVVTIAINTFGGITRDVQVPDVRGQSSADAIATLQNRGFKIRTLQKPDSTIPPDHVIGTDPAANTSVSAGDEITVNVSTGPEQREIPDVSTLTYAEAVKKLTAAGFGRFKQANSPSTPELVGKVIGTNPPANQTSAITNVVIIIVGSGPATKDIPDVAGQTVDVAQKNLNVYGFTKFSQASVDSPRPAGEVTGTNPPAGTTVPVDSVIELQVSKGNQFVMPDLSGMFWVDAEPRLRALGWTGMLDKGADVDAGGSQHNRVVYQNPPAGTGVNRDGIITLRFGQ
UniProt P28335, sequence (whole entry, looked up): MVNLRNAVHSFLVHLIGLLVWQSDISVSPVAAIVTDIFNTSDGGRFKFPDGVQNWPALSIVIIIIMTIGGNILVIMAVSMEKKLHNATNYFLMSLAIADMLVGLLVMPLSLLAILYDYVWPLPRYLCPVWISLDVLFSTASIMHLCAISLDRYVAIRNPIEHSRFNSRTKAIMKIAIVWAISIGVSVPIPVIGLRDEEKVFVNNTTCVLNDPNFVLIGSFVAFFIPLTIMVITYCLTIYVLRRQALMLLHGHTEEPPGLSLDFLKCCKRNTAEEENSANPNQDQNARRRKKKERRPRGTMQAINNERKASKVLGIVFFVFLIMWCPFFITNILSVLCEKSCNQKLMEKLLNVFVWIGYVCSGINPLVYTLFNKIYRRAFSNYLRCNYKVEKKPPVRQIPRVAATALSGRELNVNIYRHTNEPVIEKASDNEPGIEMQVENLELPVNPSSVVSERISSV

Sample 1
Cell line: HEK-293T/ACE2
Tested at: 10 µM
Time: 16 h
Relative to: vehicle
| Structure (SMILES) | viability [%] |
| --- | --- |
| CS(=O)(=O)OCCCCOS(C)(=O)=O | 97.3 |
| OC[C@H]1O[C@@H](O[C@@H]2[C@@H](CO)OC(O)(CO)[C@H]2O)[C@H](O)[C@@H](O)[C@H]1O (mixture of isomers) | 97.6 |
| Cc1cnc(NC(=O)C2=C(O)c3ccccc3S(=O)(=O)N2C)s1 | 99.2 |
| CCCc1nc(C(C)(C)O)c(C(=O)OCc2oc(=O)oc2C)n1Cc1ccc(-c2ccccc2-c2nnn[nH]2)cc1 | 105 |
| CNCC[C@@H](Oc1ccccc1C)c1ccccc1 | 99.9 |

Sample 2
Cell line: HEK-293T-ACE2-TMPRSS2
Technique: cell count
Tested at: 10 µM
| SMILES | viability [%] |
| --- | --- |
| Cc1oc(-c2ccc(C(F)(F)F)cc2)nc1CN1CCN(c2ccccc2)C(=O)C1 | 111 |
| CCOC(=O)N1CCN(C2CCCN(C(=O)CCCc3cccs3)C2)CC1 (stereo not drawn) | 103 |
| NC1(C(=O)NCCC2CN(Cc3ccco3)CCO2)CCCC1 (stereo not drawn) | 81 |
| Cc1cccc2c(-c3ccncn3)c[nH]c12 | 86 |
| COc1ccc(CNC(=O)C2(C)Cc3ccccc3C(=O)N2c2ccc(OC)cc2)cc1 (stereo not drawn) | 86 |
| CCOC(=O)N1CCN(C2CCCN(C(=O)c3scc4c3CCCC4)C2)CC1 (stereo not drawn) | 103 |
| Fc1ccc(Nc2nc3nonc3nc2Nc2cccc(C(F)(F)F)c2)cc1 | 66 |
| CC(C)C[C@H](NC(=O)[C@H](CCc1ccccc1)NC(=O)CN1CCOCC1)C(=O)N[C@@H](Cc1ccccc1)C(=O)N[C@@H](CC(C)C)C(=O)[C@@]1(C)CO1 | 131 |

Other studies, line by line
| Compound | target or system | test | conditions | measurement | value |
| --- | --- | --- | --- | --- | --- |
| CS(=O)(=O)N1CCCC(NC(=O)[C@H](CCC2CCCCC2)NC(=O)c2ccc(CNc3ncnc4c3nnn4-c3ccccc3)cc2)C1 (stereo partly drawn) | CRK2 (Plasmodium falciparum, UniProt P61075) | cell-free assay, competition with immobilised ligand | 0.1 µM | remaining binding | 100% |
| N=C(N)NN | A-375 |  | 100 µM, 60 h | viability | 104% |
| O=C1CCc2cc(Nc3cc(OC4CCOCC4)c([N+](=O)[O-])cc3Cl)ccc2N1 | HTR2A (Homo sapiens, UniProt P28223) | binding, radioligand binding | 10 µM | inhibition | 3.21% |
| NS(=O)(=O)c1cc(NC(=O)C2(c3ccccc3Cl)CC2)ccc1Oc1cccc(Cl)c1 | pknB (Mycobacterium tuberculosis, UniProt P9WI81) | cell-free assay, competition with immobilised ligand | 1 µM | remaining binding | 90% |
| CN1CCN(C(=O)C(C)(C)c2ccc(C(=O)Nc3cn4cc(-c5ccncc5)ccc4n3)cc2)CC1 | HTR2C (Homo sapiens, UniProt P28335) | binding, radioligand binding | 10 µM | inhibition | 12.4% |

A few entries again (sample 1):
| Structure (SMILES) | viability [%] |
| --- | --- |
| CCCc1nc(C(C)(C)O)c(C(=O)OCc2oc(=O)oc2C)n1Cc1ccc(-c2ccccc2-c2nnn[nH]2)cc1 | 105 |
| CNCC[C@@H](Oc1ccccc1C)c1ccccc1 | 99.9 |
